Assay results gathered from unrelated publications.
Protocols differ between the studies behind these lines. “And” joins repeats or separate records; there may be more than shown. ± marks the error that the study gave.

CC(C)(O)c1cn(-c2ccc(-c3cccc(S(C)(=O)=O)c3)cc2)c(C(C)(C)c2ccccc2Cl)n1  Emax (gene induction, agonist, measured: ABCG1; Macaca fascicularis, whole blood; relative to: pan agonist B): 41%
C[C@]12CC[C@@H]3c4ccc(O)cc4CC[C@H]3[C@@H]1CC[C@@H]2O  mRNA level (RT-qPCR, measured: CO; Arabidopsis thaliana ING1:FLAG seedlings; 20 µM, 6 h after treatment, sampled at ZT12, replicate rep2, unit not given; relative to: TUB2): 0.0917
CO[C@H]1CC[C@H](N2C(=O)CNc3ncc(-c4ccc(C(C)(C)O)nc4)nc32)CC1  pAKT change from baseline (flow cytometry; stimulated monocytes, human, blood; 30 mg single dose, 1.5 h, median; relative to: baseline): -46.9%
O=C1Nc2cc3[nH]nc(-c4ccncc4)c3cc2CN1Cc1ccccc1  stable disease, best response (RECIST v1.1; human, relapsed or refractory advanced solid tumours; intravenous, 1.8 mg/kg, pooled schedules): 0%
CCCCC1(CCCC)CN(c2ccccc2)c2cc(SC)c(OCC(=O)N[C@@H](C(=O)NCC(=O)O)c3ccccc3)cc2S(=O)(=O)C1  plasma C4 (measured: 7α-hydroxy-4-cholesten-3-one; human, plasma; 15 mg once daily, day 13): 77.1 ng/mL
N#Cc1ccc2c(c1)[C@H]1CCCN(C(=O)c3ccc4[nH]cnc4c3)[C@H]1C2  glucose AUC change (meal tolerance test; human, Phase II trial; 20 mg once daily, day 28, AUC0-2 h, adjusted mean; relative to: baseline): 1.06 mmol/h/L
Nc1nc2cc(-c3ccc4ncc(C(=O)N5CCOCC5)n4c3)ccc2o1  clinical benefit rate (RECIST v1.1; advanced solid tumour patients; dose not given, Mon-Wed-Fri dosing): 32%
CN(C(=O)n1cnc(-c2ccc[n+]([O-])c2)c1)C1CCCCC1  anandamide level (mice, brain; oral, 1 mg/kg, 4 h): 98 ± 4 pmol/g
O=C1CCc2ccc(OCCCCN3CCN(c4cccc(Cl)c4Cl)CC3)cc2N1  hazard ratio (measured: stopping or switching; patients CYP2D6 extreme phenotypes; dose not given, 12 months; relative to: IM versus NM): 1.92
N#Cc1ccn2c(-c3ccncc3)c(-c3ccc(F)cc3)nc2c1  log2 fold change (kinase binding, competitor, MIB/MS competition, measured: CKA2; Candida albicans cell lysate; 100 nM; relative to: DMSO): 0.339
C[C@H](Oc1ccc(Br)cc1-c1ccon1)C(=O)O  difference from placebo (response peak; human, tibialis anterior muscle; 400 mg, 30 Hz+30 s): 11.7%
CN(C)C(=O)c1cc2cnc(Nc3ccc(N4CCNCC4)cn3)nc2n1C1CCCC1  GSEA enrichment score (RNA-seq GSEA, measured: HALLMARK_CHOLESTEROL_HOMEOSTASIS; MB002 tumour; concentration not given, in vivo; relative to: vehicle, direction not given): 0.513
O=P(O)(O)C(Cl)(Cl)P(=O)(O)O  Iba1-positive area (Mus musculus, subarachnoid haemorrhage, meninges; concentration not given, day 1; relative to: total area): 0.69% and 1.12% and 0.65%
COCCOC(=O)C1=C(C)NC(C)=C(C(=O)OC/C=C/c2ccccc2)C1c1cccc([N+](=O)[O-])c1 (centres unmarked)  EC90 (Toxoplasma gondii; parasite growth; HFF, bradyzoite, alkaline-induced): 22 µM
COc1ccc(-c2cncc(N[C@@H](C)c3cccc(NC(=O)c4cncc(C)c4)c3)n2)cc1OC  delta delta Ct (measured: rno-miR-382-5p; rat SU5416/hypoxia model, lung; dose not given, unit not given; relative to: SU5416/hypoxia vehicle): -1.09
NCC(=O)Nc1cncc(-c2nn3c(=O)cc(N4CCNCC4)nc3s2)c1  inhibition (ADP-induced platelet aggregation, light transmission aggregometry; human, stable CAD on aspirin, ex vivo platelets; subcutaneous, 0.05 mg/kg, 60 min post-dose, mean value, added: ADP 20 µM): 48.6%
C[C@H]1C[C@H]2CSC(N)=N[C@@]2(c2nc(NC(=O)c3ccc(OC(F)F)cn3)cs2)CO1  percent change from baseline (measured: Aβx-40; healthy adults, plasma; 5 mg once daily, day 14; relative to: placebo): -40.6%
COc1cc2nccc(Oc3ccc(NC(=O)NC4CC4)c(Cl)c3)c2cc1C(N)=O  Hill coefficient (measured: Tie-2; human, serum; PK/PD model, point estimate): 0.313
CCCCCN1C[C@H](O)[C@@H](O)[C@H](O)[C@@H]1CO  number of increased sphingolipids (mouse Hexb-/-, cerebral cortex; 30 mg/kg/day; relative to: untreated Hexb-/- mice): 16
CC1(C)CCC(CN2CCN(c3ccc(C(=O)NS(=O)(=O)c4ccc(NCC5CCOCC5)c([N+](=O)[O-])c4)c(Oc4cnc5[nH]ccc5c4)c3)CC2)=C(c2ccc(Cl)cc2)C1  EC50 (cell kill; primary neoplastic T lymphocytes, dog 8; 24 h, multicentric intermediate-large T-cell lymphoma): 0.01 µM
C=CCn1c(=O)c2cnc(Nc3ccc(N4CCN(C)CC4)cc3)nc2n1-c1ccc2c(n1)[C@@](O)(CC)CC2  tumour growth inhibition (MIA PaCa-2, BALB/c nude mice, xenograft; oral, 80 mg/kg once daily, day 21; relative to: vehicle): 50.1%
CN[C@@H]1COc2c(S(=O)(=O)NC(=O)Nc3c4c(cc5c3CCC5)CCC4)cnn2C1  inhibition (measured: IL-18; human participants, whole blood ex vivo; 450 mg single dose, 1 h, IL-18, circulating, adjusted for, added: LPS/ATP; relative to: baseline): 94%
O=C(O[C@]12C[C@H]3C[C@H](C[C@H](C3)C1)C2)c1ccc(NCc2cc(O)ccc2O)cc1  EC90 (Toxoplasma gondii; parasite growth; HFF, bradyzoite, alkaline-induced): 1320 µM
O=C(O)CNC(=O)Cc1ccccc1  sarcomere length (ventricular cardiomyocytes, C57BL/6 mouse; dose not given, 0.688 s): 1.72 µm
COc1ncc(-c2nc3c(n2C(C)C)[C@H](c2ccc(Cl)cc2)N(c2cc(Cl)cn(C)c2=O)C3=O)c(OC)n1  best overall response (International Working Group criteria; human acute myeloid leukemia patients; oral, 250 mg, response TF, high-dose, recommended dose for expansion): 60%
OC(CCN1CCCCC1)(c1ccccc1)C1CC2C=CC1C2 (centres unmarked)  Change in alpha power, EEG, Fz/Cz (resting-state EEG; healthy elderly humans; oral, 2 mg, eyes open, LS mean; relative to: baseline): 30.4%
OC[C@H]1O[C@@H](c2ccc(Cl)c(Cc3ccc(O[C@H]4CCOC4)cc3)c2)[C@H](O)[C@@H](O)[C@@H]1O  glucose AUEC (healthy Korean men, blood; oral, dose not given, 2 h, steady state OGTT): 368 ± 41.9 mg·h/dL
N#Cc1ccc2c(-c3ccncc3)c(-c3ccc(F)cc3)nn2c1  log2 fold change (kinase binding, competitor, MIB/MS competition, measured: ATG1; Candida albicans cell lysate; 1 µM; relative to: DMSO): -0.352
O=C([O-])CN1CCN(CC(=O)[O-])CCN([C@H](CO)[C@H](O)CO)CCN(CC(=O)[O-])CC1.[Gd+3] (racemic)  maximum signal enhancement (C57BL/6 mouse, healthy, liver; intravenous, 0.1 mmol/kg): ~65%
NC(=O)c1cnc2[nH]ccc2c1N[C@@H]1[C@@H]2CC3C[C@H]1C[C@@](O)(C3)C2  change from baseline (flow cytometry, measured: CD8+ effector T cells; Japanese healthy subjects, peripheral blood; oral, 30 mg twice daily, day 4): -0.15%
Cc1oncc1C(=O)Nc1ccc(C(F)(F)F)cc1  DHO concentration (measured: dihydroorotate; female CD-1 mice, blood; oral, 30 mg/kg daily, 8 h after dose 10): 47.5 ± 20.4 µM
C[C@H]1O[C@@H](O[C@H]2CC[C@@]3(C)[C@@H](CC[C@]4(C)[C@@H]3C=C[C@]35OC[C@@]6(CCC(C)(C)C[C@H]63)[C@@H](O)C[C@]54C)[C@]2(C)CO)[C@H](O)[C@@H](O[C@@H]2O[C@H](CO)[C@@H](O)[C@H](O)[C@H]2O)[C@H]1O  AST/ALT ratio (Mus musculus, chronic-plus-binge ethanol, plasma; dose not given): 1.83 and 1.76 and 1.98 and 1.96
O=C1c2ccncc2C(=O)c2c1[nH]c1ccccc21  TAPSE (female monocrotaline PAH rat; dose not given; relative to: vehicle): increased
Cc1c(NC(=O)c2cccnc2)c(=O)n(-c2ccccc2)n1C  necrotic area (histology; Dmd C3333Y mice, gastrocnemius; dose not given): 4.1% and 5.7% and 5.1% and 6.2% and 2.6%
CC(C)NCC(O)c1ccc(O)c(O)c1 (centres unmarked)  sarcomere length (ventricular cardiomyocytes, C57BL/6 mouse; dose not given, 0.224 s): 1.51 µm
CN(C)C(=O)Oc1cccc([N+](C)(C)C)c1  train-of-four ratio (neuromuscular block reversal; rat; dose not given, 19 (unit not given), added: cisatracurium; relative to: T1 twitch): 98.5
Cn1cc(Nc2nccc(-c3ccc4c(c3)CN(C3COC3)CC[C@H]4NC(=O)c3cn(C(C)(C)C)nn3)n2)cn1  pathway activation z-score (measured: LPS/IL-1 inhibition of RXR; splenic B cells, mice; 30 mg/kg, IgD-activated in vivo; relative to: vehicle, direction not given): -1.07
Cc1n[nH]c2ccc(-c3cc(OC[C@@H](N)Cc4ccccc4)cnc3-c3ccoc3)cc12  log2 fold change (kinase binding, competitor, MIB/MS competition, measured: HRK1; Candida albicans cell lysate; 100 nM; relative to: DMSO): -0.0934
CC[C@H](C)[C@H](NC(=O)[C@H](C)NC(=O)CNC(=O)[C@H](Cc1ccccc1)NC(=O)[C@H](CC(N)=O)NC(=O)[C@H](CC(N)=O)NC(=O)[C@H](CO)NC(=O)[C@H](CO)NC(=O)[C@H](Cc1c[nH]cn1)NC(=O)[C@@H](NC(=O)[C@H](CC(C)C)NC(=O)[C@H](Cc1ccccc1)NC(=O)[C@H](CC(N)=O)NC(=O)[C@H](C)NC(=O)[C@H](CC(C)C)NC(=O)[C@H](CCCNC(=N)N)NC(=O)[C@H](CCC(N)=O)NC(=O)[C@@H](NC(=O)[C@H](C)NC(=O)[C@@H]1CSSC[C@H](NC(=O)[C@@H](N)CCCCN)C(=O)N[C@@H](CC(N)=O)C(=O)N[C@@H]([C@@H](C)O)C(=O)N[C@@H](C)C(=O)N[C@@H]([C@@H](C)O)C(=O)N1)[C@@H](C)O)C(C)C)C(=O)N[C@@H](CC(C)C)C(=O)N[C@@H](CO)C(=O)N[C@@H](CO)C(=O)N[C@H](C(=O)N[C@@H](CC(N)=O)C(=O)N[C@H](C(=O)NCC(=O)N[C@@H](CO)C(=O)N[C@@H](CC(N)=O)C(=O)N[C@H](C(=O)N[C@@H](Cc1ccc(O)cc1)C(N)=O)[C@@H](C)O)C(C)C)[C@@H](C)O  glucose stimulation index (isolated mouse islets; 10 µM, 24 h; relative to: high over low glucose): 1.4 ± 0.2
C=Cc1c(C)c2cc3nc(c(CC(=O)O)c4[nH]c(cc5nc(cc1[nH]2)C(C)=C5CC)c(C)c4C(=O)O)[C@@H](CCC(=O)O)[C@@H]3C  CD8+ T cells (flow cytometry; 4T1 tumour-bearing mice, lymph nodes; 2.5 mg/kg): 20% and 20.2% and 19.9%
Oc1nc2nonc2cc1Nc1c(F)c(F)c(F)c(F)c1F  fat pad weight (obese C57BL/6J mice, Western diet 19 weeks, subcutaneous, retroperitoneal fat; oral gavage, 130 mg/kg/day, end of treatment; relative to: vehicle): no effect
c1ccc(-c2n[nH]cc2-c2ccnc3ccccc23)nc1  log2 fold change (kinase binding, competitor, MIB/MS competition, measured: HRK1; Candida albicans cell lysate; 1 µM; relative to: DMSO): 1.32
Cn1cc([C@H]2C[C@H]3CSC(N)=N[C@@]3(c3ccc(F)cc3F)CO2)cn1  brain Aβ40 level (measured: Aβx-40; wild-type mouse, brain; subcutaneous, 10 mg/kg, 18 h): 2.58 ng/g
O=C1O[C@H]([C@@H](O)CO)C(O)=C1O  inhibition (nitric oxide scavenging; 80 µM): 35.8%
CC(=O)Oc1cc2c(s1)CCN(C(C(=O)C1CC1)c1ccccc1F)C2 (centres unmarked)  patients with IPA above 90% (light transmittance aggregometry; human patients, platelet-rich plasma; dose not given, 30 min, added: ADP 20 µM; relative to: patients): 0%
COc1ccccc1[C@H](Cn1c(=O)n(C(C)(C)C(=O)O)c(=O)c2c(C)c(-c3ncco3)sc21)OC1CCOCC1  blood VLDL level (human; 20 mg, post-treatment): 23.8 ± 5.33 mg/dL
CCN(Cc1nc2c(N)nc3cc(-c4cc[nH]n4)ccc3c2[nH]1)C(C)=O  mean fold change (immunohistochemistry, measured: NK cells; patients with advanced solid tumours, non-injected tumour lesions; dose not given, monotherapy; relative to: baseline): 0.8

Repeated from above:
CCCCCN1C[C@H](O)[C@@H](O)[C@H](O)[C@@H]1CO  number of increased sphingolipids (mouse Hexb-/-, cerebral cortex; 30 mg/kg/day; relative to: untreated Hexb-/- mice): 16
CC[C@H](C)[C@H](NC(=O)[C@H](C)NC(=O)CNC(=O)[C@H](Cc1ccccc1)NC(=O)[C@H](CC(N)=O)NC(=O)[C@H](CC(N)=O)NC(=O)[C@H](CO)NC(=O)[C@H](CO)NC(=O)[C@H](Cc1c[nH]cn1)NC(=O)[C@@H](NC(=O)[C@H](CC(C)C)NC(=O)[C@H](Cc1ccccc1)NC(=O)[C@H](CC(N)=O)NC(=O)[C@H](C)NC(=O)[C@H](CC(C)C)NC(=O)[C@H](CCCNC(=N)N)NC(=O)[C@H](CCC(N)=O)NC(=O)[C@@H](NC(=O)[C@H](C)NC(=O)[C@@H]1CSSC[C@H](NC(=O)[C@@H](N)CCCCN)C(=O)N[C@@H](CC(N)=O)C(=O)N[C@@H]([C@@H](C)O)C(=O)N[C@@H](C)C(=O)N[C@@H]([C@@H](C)O)C(=O)N1)[C@@H](C)O)C(C)C)C(=O)N[C@@H](CC(C)C)C(=O)N[C@@H](CO)C(=O)N[C@@H](CO)C(=O)N[C@H](C(=O)N[C@@H](CC(N)=O)C(=O)N[C@H](C(=O)NCC(=O)N[C@@H](CO)C(=O)N[C@@H](CC(N)=O)C(=O)N[C@H](C(=O)N[C@@H](Cc1ccc(O)cc1)C(N)=O)[C@@H](C)O)C(C)C)[C@@H](C)O  glucose stimulation index (isolated mouse islets; 10 µM, 24 h; relative to: high over low glucose): 1.4 ± 0.2
CC(C)(O)c1cn(-c2ccc(-c3cccc(S(C)(=O)=O)c3)cc2)c(C(C)(C)c2ccccc2Cl)n1  Emax (gene induction, agonist, measured: ABCG1; Macaca fascicularis, whole blood; relative to: pan agonist B): 41%
O=C(O[C@]12C[C@H]3C[C@H](C[C@H](C3)C1)C2)c1ccc(NCc2cc(O)ccc2O)cc1  EC90 (Toxoplasma gondii; parasite growth; HFF, bradyzoite, alkaline-induced): 1320 µM
CCCCC1(CCCC)CN(c2ccccc2)c2cc(SC)c(OCC(=O)N[C@@H](C(=O)NCC(=O)O)c3ccccc3)cc2S(=O)(=O)C1  plasma C4 (measured: 7α-hydroxy-4-cholesten-3-one; human, plasma; 15 mg once daily, day 13): 77.1 ng/mL
